{"data": "Measured values of several laboratories", "note": "A part holds a random share of what one study measured. Substitutions count along the parent as printed."}
{"data": "Study 1", "target": "tungstate, free oxyanion", "technique": "microfluidic competitive inhibition", "matrix": "in vitro, cell-free expressed", "tested at": "not given", "notes": "derived from inhibition constants, unchanged parent 2230 nM", "reading": "lower = stronger binding", "starting sequence": "PafA, mature enzyme, eGFP fusion (Elizabethkingia meningoseptica, UniProt Q9KJX5); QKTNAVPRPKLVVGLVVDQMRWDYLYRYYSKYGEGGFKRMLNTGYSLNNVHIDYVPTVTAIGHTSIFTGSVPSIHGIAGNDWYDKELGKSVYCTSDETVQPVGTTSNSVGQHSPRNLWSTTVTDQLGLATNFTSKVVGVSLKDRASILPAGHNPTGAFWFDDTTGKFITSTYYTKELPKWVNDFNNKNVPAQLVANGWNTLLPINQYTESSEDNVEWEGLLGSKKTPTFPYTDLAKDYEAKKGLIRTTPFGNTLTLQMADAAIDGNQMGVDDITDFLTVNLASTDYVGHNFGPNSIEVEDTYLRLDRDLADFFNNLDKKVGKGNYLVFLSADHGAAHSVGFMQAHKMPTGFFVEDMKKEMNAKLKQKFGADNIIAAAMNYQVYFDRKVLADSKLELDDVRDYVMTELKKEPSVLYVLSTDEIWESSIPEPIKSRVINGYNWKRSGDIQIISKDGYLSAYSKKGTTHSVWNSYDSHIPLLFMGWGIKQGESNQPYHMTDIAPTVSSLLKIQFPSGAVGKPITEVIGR"}
{"Substitution": "T98G", "oxyanion analog dissociation constant [µM]": 1.95}
{"Substitution": "V403G", "oxyanion analog dissociation constant [µM]": 2.29}
{"Substitution": "T497G", "oxyanion analog dissociation constant [µM]": 2.48}
{"data": "Study 2", "target": "Prothrombin, mature alpha-thrombin (F2, Homo sapiens, UniProt P00734)", "technique": "aptamer microarray, sandwich", "form": "DNA with 2'F-ANA", "matrix": "in vitro", "tested at": "200 nM", "notes": "whole 15-mer aptamer, many near background", "with": "Cy3 exosite-II aptamer, 400 nM", "reading": "higher = stronger binding", "strand": "GGTTGGTGTGGTTGG"}
{"Modification": "2'F-ANA at 1 6 7 8 11 12 15", "mean fluorescence intensity [a.u.]": 308}
{"Modification": "2'F-ANA at 7 14 15", "mean fluorescence intensity [a.u.]": 252}
{"Modification": "2'F-ANA at 1 2 3 7 8", "mean fluorescence intensity [a.u.]": 343}
{"Modification": "2'F-ANA at 2 3 6 7 8 10 11 12 13", "mean fluorescence intensity [a.u.]": 382}
{"Modification": "2'F-ANA at 2 5 9 11 13 14 15", "mean fluorescence intensity [a.u.]": 47.1}
{"Modification": "2'F-ANA at 2 3 4 6 7 10 13 15", "mean fluorescence intensity [a.u.]": 203}
{"Modification": "2'F-ANA at 1 3 4 5 12", "mean fluorescence intensity [a.u.]": 139}
{"Modification": "2'F-ANA at 1 4 5 6 8 9 13 14 15", "mean fluorescence intensity [a.u.]": 72.4}
{"data": "Study 3", "target": "Histone acetyltransferase KAT6A, both winged helices, GST fusion (KAT6A, Homo sapiens, UniProt Q92794, residues 1-181)", "technique": "protein binding microarray", "form": "double-stranded DNA, one strand shown", "matrix": "in vitro", "tested at": "not given", "notes": "8-mer, flanks averaged, mean of 2 arrays, mostly near background", "baseline": "not given", "reading": "higher = stronger binding", "Construct (chain)": "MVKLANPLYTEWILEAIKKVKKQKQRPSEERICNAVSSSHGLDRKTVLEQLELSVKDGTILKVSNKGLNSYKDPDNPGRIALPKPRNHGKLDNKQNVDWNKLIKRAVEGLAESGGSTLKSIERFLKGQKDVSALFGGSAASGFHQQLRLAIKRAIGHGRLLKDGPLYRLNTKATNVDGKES"}
{"Strand": "GGATGACA", "E-score": -0.0154}
{"Strand": "CGAAACTC", "E-score": -0.0592}
{"Strand": "CAAAAGTA", "E-score": -0.117}
{"Strand": "CGTTTCTC", "E-score": 0.0151}
{"Strand": "GCTAATAC", "E-score": 0.0167}
{"Strand": "ATCCCTTG", "E-score": -0.188}
{"Strand": "GAGAACAC", "E-score": -0.135}
{"Strand": "AATTATGG", "E-score": 0.0184}
{"data": "Study 4", "target": "UDP-N-acetylglucosamine--peptide N-acetylglucosaminyltransferase 110 kDa subunit (OGT, Homo sapiens, UniProt O15294)", "effect on": "binding", "technique": "phage display NGS", "form": "peptide", "notes": "panning round 2", "baseline": "input library", "chain of UniProt O15294 (whole entry, looked up)": "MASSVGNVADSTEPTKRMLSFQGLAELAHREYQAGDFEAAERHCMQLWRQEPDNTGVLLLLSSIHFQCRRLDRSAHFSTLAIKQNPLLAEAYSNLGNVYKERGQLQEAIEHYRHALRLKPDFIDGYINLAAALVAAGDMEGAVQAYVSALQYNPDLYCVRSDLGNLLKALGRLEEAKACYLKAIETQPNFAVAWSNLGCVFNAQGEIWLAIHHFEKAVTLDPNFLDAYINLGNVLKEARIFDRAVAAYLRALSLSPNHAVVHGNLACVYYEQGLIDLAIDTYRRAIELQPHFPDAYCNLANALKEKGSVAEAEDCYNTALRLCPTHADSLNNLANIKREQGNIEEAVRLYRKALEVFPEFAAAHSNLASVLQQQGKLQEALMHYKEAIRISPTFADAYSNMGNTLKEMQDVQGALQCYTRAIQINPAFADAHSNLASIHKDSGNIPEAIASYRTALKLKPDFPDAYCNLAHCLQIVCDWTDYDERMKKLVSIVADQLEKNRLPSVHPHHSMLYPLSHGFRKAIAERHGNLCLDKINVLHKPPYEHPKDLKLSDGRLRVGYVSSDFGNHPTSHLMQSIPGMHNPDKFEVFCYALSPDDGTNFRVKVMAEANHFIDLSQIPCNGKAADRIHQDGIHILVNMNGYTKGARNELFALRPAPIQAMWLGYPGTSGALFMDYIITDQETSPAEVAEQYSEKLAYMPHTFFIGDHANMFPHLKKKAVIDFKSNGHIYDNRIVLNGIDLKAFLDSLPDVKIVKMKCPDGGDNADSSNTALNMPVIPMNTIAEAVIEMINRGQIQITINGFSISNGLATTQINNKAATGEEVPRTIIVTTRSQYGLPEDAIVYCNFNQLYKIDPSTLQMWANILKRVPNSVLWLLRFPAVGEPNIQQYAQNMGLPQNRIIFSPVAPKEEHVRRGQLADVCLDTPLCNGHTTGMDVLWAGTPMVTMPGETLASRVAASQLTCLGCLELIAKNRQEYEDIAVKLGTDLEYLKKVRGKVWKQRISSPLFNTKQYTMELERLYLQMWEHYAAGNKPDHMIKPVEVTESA"}
{"Molecule": "ESIYKPRYQISIAYA", "minimum log2 enrichment ratio": 4.62}
{"Molecule": "HQYDIHHHTYTVRVH", "minimum log2 enrichment ratio": 2.36}
{"Molecule": "NQYHHGNTGNFHTHP", "minimum log2 enrichment ratio": 2.93}
{"data": "Study 5", "target": "CCNA2, cyclin fold, Cln2 fusion (human)", "technique": "yeast growth competition, sequencing", "matrix": "yeast", "notes": "strong parent motif", "baseline": "not given", "reading": "higher = stronger binding", "starting sequence": "viral docking peptide; KGVKRKLFAEDSS"}
{"Substitution": "KGSKRKLFAEDSS [V3S]", "normalised enrichment score": 4.34}
{"Substitution": "KGVMRKLFAEDSS [K4M]", "normalised enrichment score": 4.48}
{"Substitution": "KGVKRKLWAEDSS [F8W]", "normalised enrichment score": 4.32}
{"Substitution": "KGVYRKLFAEDSS [K4Y]", "normalised enrichment score": 5.34}
{"Substitution": "KGVKRILFAEDSS [K6I]", "normalised enrichment score": 4.8}
{"Substitution": "KGVKRKLFAGDSS [E10G]", "normalised enrichment score": 5.74}
{"Substitution": "KDVKRKLFAEDSS [G2D]", "normalised enrichment score": 6.27}
{"Substitution": "KGVKRKWFAEDSS [L7W]", "normalised enrichment score": 0.0874}
{"Substitution": "KGVKRKLFAMDSS [E10M]", "normalised enrichment score": 5.66}
{"Substitution": "KGVKRKLFGEDSS [A9G]", "normalised enrichment score": 6.49}
{"Substitution": "KGVKRELFAEDSS [K6E]", "normalised enrichment score": 5.7}
{"Substitution": "KGVKNKLFAEDSS [R5N]", "normalised enrichment score": 1.09}
{"Substitution": "KGKKRKLFAEDSS [V3K]", "normalised enrichment score": 1.21}
{"Substitution": "KGVKRKLFAEKSS [D11K]", "normalised enrichment score": 6.13}
{"Substitution": "KGVKRKHFAEDSS [L7H]", "normalised enrichment score": 0.204}
{"Substitution": "KGVKRKLFAADSS [E10A]", "normalised enrichment score": 6.12}
{"Substitution": "KGVKRKLRAEDSS [F8R]", "normalised enrichment score": 0.539}
{"Substitution": "KGVKHKLFAEDSS [R5H]", "normalised enrichment score": 0.697}
{"Substitution": "KGDKRKLFAEDSS [V3D]", "normalised enrichment score": 0.081}
{"Substitution": "KGVKRKLFCEDSS [A9C]", "normalised enrichment score": 6.13}
{"Substitution": "KAVKRKLFAEDSS [G2A]", "normalised enrichment score": 5.96}
{"Substitution": "KGVGRKLFAEDSS [K4G]", "normalised enrichment score": 3.55}
{"Substitution": "KGVKRKLFAEDRS [S12R]", "normalised enrichment score": 6.28}
{"Substitution": "KGVKRKLFLEDSS [A9L]", "normalised enrichment score": 6.15}
{"Substitution": "KGCKRKLFAEDSS [V3C]", "normalised enrichment score": 6.01}
{"data": "Study 6", "target": "Interferon regulatory factor 7, full length, phosphomimetic (IRF7, Homo sapiens, UniProt Q92985, residues 1-503, S471D/S472D/S475D/S476D/S477D/S483D/S484D/S487D)", "technique": "protein-binding microarray", "form": "double-stranded DNA, one strand shown", "matrix": "in vitro", "tested at": "2200 nM top", "notes": "60-bp whole probe", "with": "salmon DNA 0.4 mg/ml", "baseline": "random background probes", "reading": "higher = stronger binding", "constant ends, left off below": "GCCTAGCAC … GTCTTGATTCGCTTGACGCTGCTG", "Target sequence (chain)": "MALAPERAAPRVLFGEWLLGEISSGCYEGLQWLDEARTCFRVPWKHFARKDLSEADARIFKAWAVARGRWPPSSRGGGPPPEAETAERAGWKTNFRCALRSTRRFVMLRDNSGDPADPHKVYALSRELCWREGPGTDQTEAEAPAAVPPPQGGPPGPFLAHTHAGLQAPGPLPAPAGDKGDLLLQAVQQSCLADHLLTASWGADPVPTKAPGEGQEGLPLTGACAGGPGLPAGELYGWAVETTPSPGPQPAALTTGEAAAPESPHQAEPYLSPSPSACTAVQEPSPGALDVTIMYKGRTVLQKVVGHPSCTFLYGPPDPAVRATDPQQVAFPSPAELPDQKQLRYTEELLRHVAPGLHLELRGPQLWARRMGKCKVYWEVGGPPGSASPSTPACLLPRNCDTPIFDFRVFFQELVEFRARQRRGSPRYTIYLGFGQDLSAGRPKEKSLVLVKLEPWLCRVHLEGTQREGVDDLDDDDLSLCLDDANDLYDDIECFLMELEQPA"}
{"Strand": "GGATTGCAACCCCTCAAAAAGTGCTAG", "fitted relative affinity [z-score]": 0.589}
{"Strand": "TTAGATTTCGAGTTTCGATTAGTGCTA", "fitted relative affinity [z-score]": 6.2}
{"Strand": "GACGAACTCGGGTATCGAGACGTGCTA", "fitted relative affinity [z-score]": 0.0554}
{"Strand": "TTAGATATCGTGACTGGATTAGTGCTA", "fitted relative affinity [z-score]": -0.00105}
{"Strand": "GACGATCTCAGTATCCAGACGTGCTAG", "fitted relative affinity [z-score]": 0.595}
{"Strand": "TTAGAACTGAGTTTCGATCAGTGCTAG", "fitted relative affinity [z-score]": 1.72}
{"Strand": "GACGGTCTCCTACTGCGGACGTGCTAG", "fitted relative affinity [z-score]": 0.223}
{"Strand": "GACGATGTCAGTATCGAGACGTGCTAG", "fitted relative affinity [z-score]": 0.0261}
{"data": "Further values, each from its own experiment"}
{"Substance": "PhoQ, residues 284 288 289 292 302 303 ALASRC", "target": "PhoP, residues 12 14 15 18 19 FWNTL (Escherichia coli, UniProt P23836)", "assay": "Sort-seq, refers to: YFP reporter", "system": "E. coli", "conditions": "PhoQ-PhoP variant library, with: 10 µM Mg2+", "scale": "baseline: high Mg2+ state, higher = stronger signaling", "quantity": "fold induction", "value": 5.11}
